Results of several laboratories.
OPRM1: Mu-type opioid receptor (OPRM1, Homo sapiens, UniProt P35372)
UniProt P35372, sequence (whole entry, looked up): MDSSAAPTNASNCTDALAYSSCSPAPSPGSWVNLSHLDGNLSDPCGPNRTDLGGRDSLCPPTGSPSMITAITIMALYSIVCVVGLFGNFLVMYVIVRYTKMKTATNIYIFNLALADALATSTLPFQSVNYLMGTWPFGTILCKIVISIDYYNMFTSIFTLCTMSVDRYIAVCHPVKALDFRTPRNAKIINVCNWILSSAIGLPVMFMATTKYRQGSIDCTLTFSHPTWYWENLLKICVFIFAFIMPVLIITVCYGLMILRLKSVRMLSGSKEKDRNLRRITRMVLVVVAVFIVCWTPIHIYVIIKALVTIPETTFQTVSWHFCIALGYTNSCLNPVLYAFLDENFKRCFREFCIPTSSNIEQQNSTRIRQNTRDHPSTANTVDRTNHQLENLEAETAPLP
CNR2: Cannabinoid receptor 2 (CNR2, Homo sapiens, UniProt P34972)
UniProt P34972, sequence (whole entry, looked up): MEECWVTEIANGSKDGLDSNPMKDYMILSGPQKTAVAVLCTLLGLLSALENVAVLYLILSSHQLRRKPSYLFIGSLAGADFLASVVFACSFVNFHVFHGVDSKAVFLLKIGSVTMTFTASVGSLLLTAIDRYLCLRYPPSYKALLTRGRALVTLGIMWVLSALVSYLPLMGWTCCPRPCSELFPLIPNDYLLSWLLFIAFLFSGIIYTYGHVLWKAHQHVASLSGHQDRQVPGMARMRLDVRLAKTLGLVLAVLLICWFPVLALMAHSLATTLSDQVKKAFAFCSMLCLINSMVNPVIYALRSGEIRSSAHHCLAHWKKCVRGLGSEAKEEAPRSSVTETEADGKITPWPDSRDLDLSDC
UniProt Q8NEV4, sequence (whole entry, looked up): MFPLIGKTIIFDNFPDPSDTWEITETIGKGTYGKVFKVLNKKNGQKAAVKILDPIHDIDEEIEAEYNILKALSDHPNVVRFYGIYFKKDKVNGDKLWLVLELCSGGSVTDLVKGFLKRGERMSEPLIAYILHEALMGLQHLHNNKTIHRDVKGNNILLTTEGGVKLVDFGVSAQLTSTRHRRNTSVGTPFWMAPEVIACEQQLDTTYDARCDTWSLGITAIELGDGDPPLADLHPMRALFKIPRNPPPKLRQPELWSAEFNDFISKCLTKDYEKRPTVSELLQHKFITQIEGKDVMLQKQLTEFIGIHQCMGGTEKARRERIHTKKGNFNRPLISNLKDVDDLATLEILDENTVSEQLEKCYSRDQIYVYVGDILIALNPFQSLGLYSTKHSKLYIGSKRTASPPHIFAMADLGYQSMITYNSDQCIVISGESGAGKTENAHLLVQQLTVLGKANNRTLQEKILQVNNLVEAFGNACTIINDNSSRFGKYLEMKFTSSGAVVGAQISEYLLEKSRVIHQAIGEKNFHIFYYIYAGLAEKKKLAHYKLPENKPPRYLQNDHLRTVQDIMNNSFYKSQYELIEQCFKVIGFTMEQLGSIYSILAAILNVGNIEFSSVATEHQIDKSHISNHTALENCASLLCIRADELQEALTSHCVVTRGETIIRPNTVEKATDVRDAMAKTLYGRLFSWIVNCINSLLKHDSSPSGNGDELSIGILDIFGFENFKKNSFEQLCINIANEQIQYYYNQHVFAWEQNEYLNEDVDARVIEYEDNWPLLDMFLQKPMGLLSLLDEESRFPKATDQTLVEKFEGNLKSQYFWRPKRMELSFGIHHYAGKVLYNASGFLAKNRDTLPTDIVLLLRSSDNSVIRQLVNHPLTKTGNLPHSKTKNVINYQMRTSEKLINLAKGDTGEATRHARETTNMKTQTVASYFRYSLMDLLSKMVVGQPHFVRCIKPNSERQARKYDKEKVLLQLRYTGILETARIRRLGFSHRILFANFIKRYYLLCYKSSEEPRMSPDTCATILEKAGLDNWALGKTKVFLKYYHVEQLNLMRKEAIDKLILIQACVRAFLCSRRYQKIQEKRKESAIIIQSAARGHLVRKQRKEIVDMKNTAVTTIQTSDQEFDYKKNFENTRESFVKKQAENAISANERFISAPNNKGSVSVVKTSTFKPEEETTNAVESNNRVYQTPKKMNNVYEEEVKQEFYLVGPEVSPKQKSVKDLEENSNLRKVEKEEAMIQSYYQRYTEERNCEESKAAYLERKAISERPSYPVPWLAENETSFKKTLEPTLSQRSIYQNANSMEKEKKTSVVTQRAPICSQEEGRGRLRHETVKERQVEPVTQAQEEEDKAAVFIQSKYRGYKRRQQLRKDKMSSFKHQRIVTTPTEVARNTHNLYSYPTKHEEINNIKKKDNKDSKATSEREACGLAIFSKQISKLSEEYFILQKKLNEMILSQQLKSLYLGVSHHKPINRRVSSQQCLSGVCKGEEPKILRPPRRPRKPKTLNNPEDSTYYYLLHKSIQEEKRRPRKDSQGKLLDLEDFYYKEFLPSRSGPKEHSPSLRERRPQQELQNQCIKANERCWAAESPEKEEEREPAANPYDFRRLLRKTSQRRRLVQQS
UniProt P78356, sequence (whole entry, looked up): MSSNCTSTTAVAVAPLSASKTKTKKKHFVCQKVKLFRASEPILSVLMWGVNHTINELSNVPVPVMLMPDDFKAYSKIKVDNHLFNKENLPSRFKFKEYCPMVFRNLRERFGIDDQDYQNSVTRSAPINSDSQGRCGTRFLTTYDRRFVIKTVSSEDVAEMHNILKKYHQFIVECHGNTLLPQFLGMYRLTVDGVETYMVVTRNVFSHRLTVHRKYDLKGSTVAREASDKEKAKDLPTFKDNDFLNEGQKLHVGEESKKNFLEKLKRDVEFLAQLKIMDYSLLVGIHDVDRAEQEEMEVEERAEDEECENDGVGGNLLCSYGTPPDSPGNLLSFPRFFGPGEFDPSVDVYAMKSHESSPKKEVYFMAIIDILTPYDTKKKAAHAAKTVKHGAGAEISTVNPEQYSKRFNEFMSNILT
UniProt P15056, sequence (whole entry, looked up): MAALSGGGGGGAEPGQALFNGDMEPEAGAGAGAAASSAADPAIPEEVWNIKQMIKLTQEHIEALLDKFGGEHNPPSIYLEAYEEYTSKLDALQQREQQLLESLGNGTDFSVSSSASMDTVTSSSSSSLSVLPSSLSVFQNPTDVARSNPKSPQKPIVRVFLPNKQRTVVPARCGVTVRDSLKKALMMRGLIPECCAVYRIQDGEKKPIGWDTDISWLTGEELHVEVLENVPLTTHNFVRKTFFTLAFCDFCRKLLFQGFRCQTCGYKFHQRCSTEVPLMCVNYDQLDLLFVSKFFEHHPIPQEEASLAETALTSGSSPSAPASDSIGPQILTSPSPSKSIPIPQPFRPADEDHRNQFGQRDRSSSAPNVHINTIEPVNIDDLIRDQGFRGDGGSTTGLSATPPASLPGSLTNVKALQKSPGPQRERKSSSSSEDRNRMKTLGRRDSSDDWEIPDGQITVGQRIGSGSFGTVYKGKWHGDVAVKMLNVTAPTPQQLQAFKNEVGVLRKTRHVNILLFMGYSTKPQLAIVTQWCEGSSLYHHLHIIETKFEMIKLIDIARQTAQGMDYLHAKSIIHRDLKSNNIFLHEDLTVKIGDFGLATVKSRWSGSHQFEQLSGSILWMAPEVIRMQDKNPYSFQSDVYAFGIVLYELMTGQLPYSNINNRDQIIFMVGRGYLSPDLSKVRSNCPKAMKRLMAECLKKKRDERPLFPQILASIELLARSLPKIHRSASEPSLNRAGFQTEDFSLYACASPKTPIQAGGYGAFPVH

For `CN1CCC[C@H]1c1cccnc1`, the inhibition was 19.5% (OPRM1; ligand displacement; 50 µM).
The remaining binding of `COc1ncccc1-c1cnn2ccc(N3CCN(C(=O)OC(C)C)CC3)nc12` is reported as 71% (PIP4K2B (Homo sapiens, UniProt P78356); binding, competition with immobilised ligand; 1 µM).
With `Nc1ncc(-c2nc(N3CCOCC3)nc(N3CCOCC3)n2)c(C(F)F)n1` the remaining binding was 88% (FLT3 (Homo sapiens, UniProt P36888); binding, competition with immobilised ligand; 10 µM).
With `Oc1cccc(N2[C@@H]3CC[C@H]2CNC3)c1` the Emax was 105% (OPRM1; cAMP, agonist; OPRM1).
For `C#Cc1n[nH]c2c(-c3cn(C(C)c4ccccn4)c(=O)[nH]c3=O)cc(F)cc12` (stereo not drawn), the inhibition was 9.8% (PLK1 (Homo sapiens, UniProt P53350); enzyme activity, inhibitor; 1 µM).
The Emax of `CCCCC/C=C\[C@H](C)/C=C\C/C=C\Cc1ccccc1CCCC(=O)N[C@H](C)CO` is reported as 53% (CNR2; β-arrestin recruitment, agonist).
With `[2H]c1c([2H])c([C@]2([2H])CCCN2C(=O)C(C)(C)Oc2ccc3cn[nH]c3c2)c([2H])c([2H])c1C([2H])([2H])[2H]` the remaining binding was 100% (BRAF (Homo sapiens, UniProt P15056); binding, competition with immobilised ligand; 1 µM).
`CC(C)CC(=O)OC[C@H]1O[C@@](C#N)(c2ccc3c(N)ncnn23)[C@H](O)[C@@H]1O` gave an inhibition of 8% (CNR2; cell-free assay; 20 µM).
`Cc1nn(C)cc1-c1nc2c(N3CCN(Cc4ccc(Cl)cc4)CC3)c(Cl)cnc2[nH]1` has a remaining binding of 100% (Myosin-IIIa (MYO3A, Homo sapiens, UniProt Q8NEV4); binding, competition with immobilised ligand; 1 µM).

For quick reference, copied from above:
For `C#Cc1n[nH]c2c(-c3cn(C(C)c4ccccn4)c(=O)[nH]c3=O)cc(F)cc12` (stereo not drawn), the inhibition was 9.8% (PLK1 (Homo sapiens, UniProt P53350); enzyme activity, inhibitor; 1 µM).
